Measurements of several laboratories.
Parts stem from different laboratories: compare values within a part only.

Study 1
Target: RING finger protein unkempt homolog, zinc fingers 1-6, GST-SBP tag (UNK, Homo sapiens, UniProt Q9C0B0, residues 30-357)
UniProt Q9C0B0, sequence (30-357, looked up): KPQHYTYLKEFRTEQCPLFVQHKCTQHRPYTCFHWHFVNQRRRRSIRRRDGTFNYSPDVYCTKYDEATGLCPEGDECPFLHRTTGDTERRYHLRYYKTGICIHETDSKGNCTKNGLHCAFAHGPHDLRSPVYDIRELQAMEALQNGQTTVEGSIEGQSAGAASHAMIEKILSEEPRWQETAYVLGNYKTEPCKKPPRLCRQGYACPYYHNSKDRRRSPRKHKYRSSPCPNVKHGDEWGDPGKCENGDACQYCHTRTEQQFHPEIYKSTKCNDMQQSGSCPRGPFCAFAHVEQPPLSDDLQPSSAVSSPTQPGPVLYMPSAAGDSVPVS
Method: RNA Bind-n-Seq
Form: RNA
Matrix: in vitro
Concentration: not given
Setting: RNA with constant flanks, human-mouse chimeric sites, ends assumed
Baseline: input RNA pool
Reading: higher = stronger binding
Endpoint: bound/input enrichment
All sequences stand within: GGGAGUUCUACAGUCCGACGAUC … CAACAGAGGAUUGAGCAUCA
AAAAUAGACUAUGGCGAGUACAUGGAUAAAAACAAUGUGAGGCGGCAAGCAACAACAAUCAUAGCUGAUAACAUUAUAUUUCUGAGUGACCAGACAAAAGAAAAGGCAUAGAACGGAUGA: 3.22 ratio
UCUUUAAAAAAAAAAUUACCUUUUCUGACAGUGCUUUCCCUCCCAUAGGUCCAGGUUCAAGCUCAAAGAGCAAAGGCUUUGCACGGAGCUCAAACAUCUGAUGAAGAAAGAUUUCUGAGA: 0.549 ratio
UAAAUUAGGGCUGCCGUUUUCUGUUUCUCCCUGGGCUGCGGAAAGCCAGGCGGUUUUAUCUAGCUUAUACAAGGCUGCUGGAGCUUGCUCUUUUUUUCCACGAGGGUGUUUUUGGCUGCA: 0.843 ratio
AUGGAGAAGGAUUCUCUGCCCCGCUUUGUGCGCUCUGAAUUUUAUAAGGAGCUAAUCAAGUAGUAAUCUGGUCAGGCUUCCAAAAGUUGCCCUGUGAUAUUUCCUCCAUCCUUUGUAGCA: 0.27 ratio
ACACAAUAUGAGACCAACAGCUUGGACUUCAAAGUCGGGGCAGAUGGGACAGUCUUCGCCACCCGGGAGCUGCAGGUCCCCUCCGAGCAGGUGGCGUUCACGGUGACUGCAUGGGACAGC: 0.179 ratio
GUGACUGGUGUUAAGAUUUACCCUCAGCAAAGAAGUGCAGUAGUCACCAUAAUUCCAUCUAUAGUGAGUGCCAGUCAGAUUGUGGAGCUGGUCCCAGACCUCAGUUUAGACAUGGGAACU: 0.921 ratio
UUUGUUUUUAUGCUAAGCACACGUGCUGGUGGUCUUGGCAUCAAUCUUGCAACUGCUGAUGUAGUCAUUUUAUAUGACUCAGAUUGGAAUCCGCAAGUUGAUCUUCAGGCUAUGGACCGU: 0.193 ratio
UUGCUACUAACUCCAUGGGUCAAGUUCCUGUGGGAAUCAUACAGGCAGUGUUUGGACCUUCUUCGAAACAAUUCUAGAGUAGAGCGCCUUUACCAUGAUAUUGCCCAACAAGCUUUCAAA: 0.15 ratio
CAGCUGCAGACAGAAAAGGAUGAGAAGGAGCUGUAUAAGGUACAUUUGAAGAAUACAGAAAUAGAAAAUACGAAGCUUGUGUCAGAGAUACAGACUUUAAAAAAUUUAGAUGGGAACAAA: 2.79 ratio
AGAAUCUUGGGACUGUUUUACUUAAUUGGUCAUUGAUAGCUUAACAAGCAUGGAGAUAAGAUUAGAAGUUUUGACAUCAACAGGUAUUAAGCAGAAAAAACCAUGGCCACGUGUCUCCUG: 0.344 ratio
GCGGCAGAAUCAUGGUGGACAUAAUGCAGCUCCCCAAAGCGCGCGUCAACGCCAGCAUGUUACCACAAUUCAUCGACCGGCCCGUGUGCUUCGUGGGGAAGCUGGAAAAGAUUCAUCCCA: 0.104 ratio

Study 2
Target: Ras GTPase-activating protein-binding protein 1, C-terminal RGG region (G3BP1, Homo sapiens, UniProt Q13283)
UniProt Q13283, sequence (whole entry, looked up): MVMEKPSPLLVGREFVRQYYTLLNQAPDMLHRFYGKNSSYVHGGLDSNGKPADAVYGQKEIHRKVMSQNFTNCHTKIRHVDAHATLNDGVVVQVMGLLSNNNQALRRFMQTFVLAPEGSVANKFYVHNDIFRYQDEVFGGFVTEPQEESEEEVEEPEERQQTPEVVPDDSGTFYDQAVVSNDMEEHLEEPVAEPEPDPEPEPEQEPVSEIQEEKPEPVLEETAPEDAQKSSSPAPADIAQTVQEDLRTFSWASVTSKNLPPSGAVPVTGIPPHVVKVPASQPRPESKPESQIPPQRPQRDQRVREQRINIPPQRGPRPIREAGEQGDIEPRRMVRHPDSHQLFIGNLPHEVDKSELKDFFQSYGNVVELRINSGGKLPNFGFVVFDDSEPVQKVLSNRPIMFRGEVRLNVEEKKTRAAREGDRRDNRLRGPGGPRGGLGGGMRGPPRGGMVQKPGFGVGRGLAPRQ
Method: RNA Bind-n-Seq
Form: RNA
Matrix: in vitro
Concentration: 1 µM
Setting: whole 134-nt RNA, ends assumed
Added: 150 mM KCl
Baseline: input library
Reading: higher = stronger binding
Endpoint: log2 enrichment
All sequences stand within: GGGAGUUCUACAGUCCGACGAUC … UGGAAUUCUCGGGUGUCAAGG
AAGUCCUGUGCUACACAUCGUAUGUACCGAAUCGGGGCCCGGCCCGGGGCCCGGGGAAAGUAUUAUGUUACGCCGUUCGGAUCUGCACUU: -2.25
AAGUCCUGUGCUACACAUCGUAUGUACCGAAUCGGAAAAGGAAAAGGGGAAAAGGGGAAAGUAUUAUGUUACGCCGUUCGGAUCUGCACU: -1.17
ACCAUGCAGGUGGGCAUCUUUGGGAAGUGGGGCAAGGGGGGGAUAGGGAGUGGGGUAACACUUUGGGAACAGGUGGUCCCAGGUCGUUUC: 2.1
ACCAUCCAGGUGGGCAUCUUUGGGAAGUGGGGCAAGGGGGGGAUAGGGAGGGGGGUAACACUUUGGGAACAGGUGGUCCCAGGUCGUUUC: -1.1
UGGCCCUGGUGGCAUGCGGGGAGGAAGAGGUGGCCUCAUGGAUCGCGGUGGUCCCGGUGGAAUGUUCAGAGGUGGCCGUGGUGGAGACAG: 2.44
UAACUUUAGAGGAGGAUCUGAUGGAUAUGGCAGUGGACGUGGUUUUGGGGAUGGCUAUAAUGGGUAUGGAGGAGGACCUGGAGGUGGCAA: -1.24
UCAAGUCCUGUGCUACACAUCGUAUGUACCGAAUCGGAAAGGAAAGGAAAAAGGAAAGUAUUAUGUUACGCCGUUCGGAUCUGCACUUCC: -1.45
CUCAAGUCCUGUGCUACACAUCGUAUGUACCGAAUCGGGCGGGGCGGGCGGGGAAAGUAUUAUGUUACGCCGUUCGGAUCUGCACUUCCA: 2.44
UGCCCUCCGUGGAGUCUUUGUUUCGAAGUCCGAUAAAGGAAUCUCUAUUCCGGUCUUCUUCUAAAGAGUCUUUGGUACGAACAUCUUCCA: -1.19
UUCAGGAUUGUGAGGGUGAAACUCCCAUUCACAAGGCAGCUCGCUCUGGGAGCCUAGAAUGCAUCAGUGCCCUUGUGGCGAAUGGGGCUC: -1.65
AAGUCCUGUGCUACACAUCGUAUGUACCGAAUCGGUUUGGAAAAAAAGGAAAAAGGAAAGUAUUAUGUUACGCCGUUCGGAUCUGCACUU: -2.13
CCUGUGCUACACAUCGUAUGUACCGAAUCGGGGUGGGGUUUUUUUGGGGAAAAAAAGGGGAAAGUAUUAUGUUACGCCGUUCGGAUCUGC: -0.272
UCCUGUGCUACACAUCGUAUGUACCGAAUCGGGAAAAAAAGGGUUUUUUUGGGAAAGGGAAAGUAUUAUGUUACGCCGUUCGGAUCUGCA: -0.92
UCAAGUCCUGUGCUACACAUCGUAUGUACCGAAUCGGGAGGGUGGGUUUUUGGGAAAGUAUUAUGUUACGCCGUUCGGAUCUGCACUUCC: 1.67

Study 3
Target: PABPC1L2, full length, GST fusion (mouse, UniProt A0ABA7IW68)
Method: RNAcompete
Form: RNA
Matrix: in vitro
Concentration: 20 nM
Setting: 7-mer, probes averaged, single round
Baseline: mean of 7-mers
Reading: higher = stronger binding
Endpoint: 7-mer Z-score
Construct (chain): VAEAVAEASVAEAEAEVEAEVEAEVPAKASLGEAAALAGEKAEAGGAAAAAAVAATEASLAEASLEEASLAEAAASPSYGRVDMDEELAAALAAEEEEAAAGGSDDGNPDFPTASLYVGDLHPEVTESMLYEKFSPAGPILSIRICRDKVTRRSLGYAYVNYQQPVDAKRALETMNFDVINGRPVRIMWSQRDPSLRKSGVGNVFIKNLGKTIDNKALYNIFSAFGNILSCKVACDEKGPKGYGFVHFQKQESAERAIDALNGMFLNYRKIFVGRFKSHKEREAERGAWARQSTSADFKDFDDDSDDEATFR
UGAACUG: -0.142
ACCUGAG: -0.166
GUGGACU: 0.137
UAGAGAU: -0.0699
UUUAGUG: 0.0352
CUGUCGU: -0.344
GUCGCCC: -0.425
CGCGAAC: -0.235
CGUGUAA: 0.173
CGAUACG: -0.108
UAGGCGU: -0.17
GGGGCCU: 0.113
UACACCA: -0.137
AUGCCGA: -0.0681
AAGUAUC: 0.119
GCGACGU: -0.104
GCCUUCG: -0.429

Study 4
Target: RNA binding protein fox-1 homolog 2, RRM domain, GST-SBP tag (RBFOX2, Homo sapiens, UniProt O43251-10, residues 100-194)
Method: RNA Bind-n-Seq
Form: RNA
Matrix: in vitro
Concentration: 365 nM
Setting: natural RNA segment, single round, ends assumed
Baseline: no-protein control
Reading: higher = stronger binding
Endpoint: RBNS enrichment (R)
All sequences stand within: GGGAGUUCUACAGUCCGACGAUC … UGGAAUUCUCGGGUGCCAA
Target sequence (chain): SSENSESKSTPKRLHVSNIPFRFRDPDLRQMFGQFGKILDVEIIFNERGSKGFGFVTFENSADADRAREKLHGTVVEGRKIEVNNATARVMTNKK
CCCGCUCUGCCGCCGCCCGCUGGGGACCGGUUCCCACAAGCCUGCCUCGCCUUGUGUUACGAUAUUUCGUUUGGUCUUAGGUCUUCCUGUGGCUCCCUCUCUCCUGGACU: 0.767
CUGGUUGUAAAGAGUAAAACUGUAUCUUAGGAAACCAGUGUCACCUUUUUCACCUUUUAAUUUUAUAUUAUUUGUGUCAUACAUUUCCAGUAAUGGAAGUGUUAAUUUUA: 0.302
AUAACAAAGGGCAGCCCUCCACUUCUGGUAUAAUUGUGUAGCCCCUUUUCUUUGGGCUUGACACCUGUCUUGAAUAAGAGUGAUUAGAGCUGCAUAAUGUCCCUCUCUUG: 1.09
UUCUCUUUCAUGAGGGUGGAACUUGCACAGAAAAGAAGAAUAAUCGCAAGAAGAGAUUUGGGCUUAACACUGGGUACUUUGUGGGUCUCUUUUGUGGAUGGCUUCAAGUA: 0.753
CACCACUGCAAACCCCCAAAUUGUAUGGAAGCCCCACACAGAUAGGGCCAAGCUAUAGAGGCAUGAUCAAUGUCUCCACCUCAUCAGACAUGGACCAUAACUCUGCUAUA: 0.47
AUGCUUUGUUUGGAUAUGGAGUGAACACAAUUAUGUACCAAAUUUAACUUGGCAAACUUUCUAUUGCCUGUCCCAUGUGCAUCUUAUUUAAAAUUUCCCCCAUGGAAAUC: 1.08
GGAGGGAAGAGAUGGCCGCAAGAGGGGCCACCUCUUAGGUCAGAUGGAAGAUCUCAGAGCCAAGUCCUUCUACUCACGAGUAGAAGGACCGUUGGCCAACAGCCCUUUCA: 0.35
AGUGUCUGUAUAUUUGUGAUGCAAUGGUCUUGUAAAGGUUUUUACUGAAAACUAUCAUUAGCCAGCCUUUCUUACUGACAAUAAAUUAUUAAUAAAAUACUUUAGCUUUA: 0.587
GAAAAAAGUUUAAACUACAUUCAUGUUCUUGUUCUGUGUCACUCGGCCCUGGGUAGUCUACCAUUUACUUCACCCCAAGUCCUGCUGCCCAUCCAGUUGGGAAGCCAUGA: 0.29
UGGCCCGGGACACGGGCACUCUUCAUGACCCCUCCCCCACCUGGGUUCUUCCUGUGUGGUCCAGAACCACGAGCCUGGUAAAGGAACUAUGCAAACACAGGCCCUGACCU: 0.234
UCCCUUUUUAAACUCCUGGAAACAUUUUUGUUACCAAAUAAAUCAUGUUUUAUGGUACUCAGCCAUCCAAAAGUGAAAGACCUAGCAUUUGAUUCUGUGCAGGACACAAA: 0.763
UAAAGAAAUGGGUUUAUUUUUCCAGCAUAAACCUCAGAAUUUAAGGAAAGAAAAUGAUGUCUGUUGUUAUAGUUCAUUGUUUUGCCUACUCAGCAGAAGUGAUGACUCUU: 0.364

Some of these lines once more (study 3):
UAGAGAU: -0.0699
UUUAGUG: 0.0352
CUGUCGU: -0.344
GUCGCCC: -0.425
CGCGAAC: -0.235
CGUGUAA: 0.173
